Results pooled from the literature.
Compare with care: the assays were run in different laboratories. Several values in a cell are separate wells, animals, samples, runs or records.
PFF0160c: Dihydroorotate dehydrogenase (quinone), mitochondrial (PFF0160c, Plasmodium falciparum, UniProt Q08210)
Sialidase-3: Sialidase-3 (Homo sapiens, UniProt Q9UQ49)
gyrA: DNA gyrase subunit A (gyrA, Escherichia coli K-12, UniProt P0AES4)
Sialidase-4: Sialidase-4 (Homo sapiens, UniProt Q8WWR8)
HLA class I histocompatibility antigen, B alpha chain: HLA class I histocompatibility antigen, B alpha chain (Homo sapiens, UniProt P01889)
PFF0160c E182D: Dihydroorotate dehydrogenase (quinone), mitochondrial (PFF0160c, Plasmodium falciparum, UniProt Q08210, E182D)

Structure (SMILES)	target or system	test	test system	setting	quantity	result
c1ccc2[nH]c(Nc3ccc(Nc4nc5ccccc5[nH]4)cc3)nc2c1	PFF0160c	enzyme activity, inhibitor, absorbance	–	–	IC50	> 10 µM
CCn1cc(C)c2c([C@@H](O)c3ccc(C(F)(F)F)nc3)n(C)nc2c1=O	PFF0160c	enzyme activity, inhibitor	–	–	IC50	0.251 µM
O=c1c2cccnc2sn1-c1ccccc1	PFF0160c	enzyme activity, inhibitor, absorbance	–	–	IC50	> 10 µM
CN(C(=O)CC(C)(C)C)[C@H]1[C@H]([C@H](O)[C@H](O)CO)OC(C(=O)O)=C[C@@H]1O	Sialidase-3	enzyme activity, inhibitor	–	–	IC50	190 µM
CC(C)C[C@H](NC(=O)OCc1ccccc1)C(=O)N[C@@H](CC1CCNC1=O)C(O)S(=O)(=O)O (stereo partly shown)	Calpain-1 catalytic subunit (CAPN1, Homo sapiens, UniProt P07384)	enzyme activity, inhibitor	–	–	IC50	0.089 µM
CCn1cc(C2CC2)c2c([C@H](N)c3ccc(C(F)(F)F)nc3)n(C)nc2c1=O	PFF0160c	enzyme activity, inhibitor	–	–	IC50	0.2 µM
CN1C(=O)Cc2ccc(F)c(CNCCCC3CN(c4ccc5c(n4)NC(=O)CO5)C(=O)O3)c21 (stereo not shown)	gyrA	enzyme activity, inhibitor	–	–	IC50	0.054 µM
Cn1nc2c(=O)n(C)ccc2c1Cc1ccc(C(F)(F)F)nc1	PFF0160c	enzyme activity, inhibitor	–	–	IC50	4.2 µM
CCN(C)C(=O)Oc1ccc(CCC(=O)N2CCN(Cc3ccccc3)CC2)cc1	Cholinesterase (BCHE, Equus caballus, UniProt P81908)	enzyme activity, inhibitor, Ellman	–	–	IC50	26.5 µM
CC(=O)N(C)[C@H]1[C@H]([C@H](O)[C@H](O)CO)OC(C(=O)O)=C[C@@H]1O	Sialidase-4	enzyme activity, inhibitor	–	–	IC50	400 µM
CCN(C)C(=O)Oc1ccc(/C=C/C(=O)NC2CCN(Cc3ccccc3)CC2)cc1OC	Cholinesterase (BCHE, Equus caballus, UniProt P81908)	enzyme activity, inhibitor, Ellman	–	–	IC50	3 µM
CCc1ccccc1N=C1c2c(cccc2[N+](=O)[O-])C(=O)C1C(C)=O (stereo not shown)	PFF0160c	enzyme activity, inhibitor, absorbance	–	–	IC50	0.121 µM
CCN(C)C(=O)Oc1ccc(CCC(=O)N2CCC(Cc3ccccc3)CC2)cc1OC	Cholinesterase (BCHE, Homo sapiens, UniProt P06276)	enzyme activity, inhibitor, Ellman	–	–	IC50	6.3 µM
CC[C@H](C)[C@H](NC(C)=O)C(=O)N[C@@H](CCC(=O)O)C(=O)N[C@H](C(=O)N[C@H](C=O)CC(=O)O)[C@@H](C)O	Caspase-5 (CASP5, Homo sapiens, UniProt P51878)	enzyme activity, inhibitor	–	–	IC50	0.00818 µM
CC(C)C[C@H](NC(=O)[C@H]1O[C@@H]1C(=O)O)C(=O)NCCCCN=C(N)N	Papain (Carica papaya, UniProt P00784)	enzyme activity, inhibitor	–	–	IC50	6e-05 µM
Cn1nc2c(=O)n(C3CC3)ccc2c1Cc1ccc(C(F)(F)F)c(C#N)c1	PFF0160c	enzyme activity, inhibitor	–	–	IC50	0.126 µM
COC(=O)c1cc(-c2cccc(NC(=O)Nc3ccccc3)c2)on1	Klebsiella pneumoniae	microbial growth, broth dilution	BAA1705	–	MIC	> 64 µg/mL
CN1CCc2[nH]c3ccccc3c2CC1	Voltage-dependent N-type calcium channel subunit alpha-1B (Homo sapiens, UniProt Q00975)	ion current, inhibitor, patch clamp	–	–	IC50	330 µM and > 180 µM
CCC1(c2ccccc2)NC(=O)N(NC(=O)c2ccc3noc(-c4ccccc4)c3c2)C1=O (stereo not shown)	PFF0160c	enzyme activity, inhibitor, absorbance	–	–	IC50	> 10 µM
CCCCCC(=O)N(C)[C@H]1[C@H]([C@H](O)[C@H](O)CO)OC(C(=O)O)=C[C@@H]1O	Sialidase-3	enzyme activity, inhibitor	–	–	IC50	> 500 µM
Cn1c(=O)ccc2ccc(F)c(CCNC[C@@H]3CN(c4cnc5c(n4)NC(=O)CO5)C(=O)O3)c21	gyrA	enzyme activity, inhibitor	–	–	IC50	0.013 µM
[2H]c1c([2H])c([C@]2([2H])CCCN2C(=O)C(C)(C)Oc2ccc3cn[nH]c3c2)c([2H])c([2H])c1C([2H])([2H])[2H]	Serine/threonine-protein kinase 35 (STK35, Homo sapiens, UniProt Q8TDR2)	binding, competition with immobilised ligand	–	1 µM	remaining binding	75%
Cc1nn(C)cc1-c1nc2c(N3CCN(Cc4ccc(Cl)cc4)CC3)c(Cl)cnc2[nH]1	Serine/threonine-protein kinase 17B (STK17B, Homo sapiens, UniProt O94768)	binding, competition with immobilised ligand	–	1 µM	remaining binding	21%

Structure (SMILES)	target or system	test	test system	setting	quantity	result
COc1ccc(S(=O)(=O)Oc2ccc3ccccc3c2C=NNC(=O)c2ccc(F)cc2)cc1	Carbonic anhydrase 2 (CA2, Homo sapiens, UniProt P00918)	enzyme activity, inhibitor, absorbance	–	–	IC50	0.252 µM
CC[C@@](N)(c1cnc(C(F)(F)F)c(Cl)c1)c1c2ccn(C3CC3)c(=O)c2nn1C	PFF0160c	enzyme activity, inhibitor	–	–	IC50	0.0398 µM
CC[C@H](C)[C@H](NC(=O)[C@H](CO)NC(=O)[C@H](Cc1ccc(O)cc1)NC(=O)[C@@H](NC(=O)[C@@H](N)CCCCN)C(C)C)C(=O)N1CCC[C@H]1C(=O)N[C@@H](Cc1c[nH]cn1)C(=O)N[C@@H](CCC(N)=O)C(=O)N[C@@H](CCSC)C(=O)O	HLA class I histocompatibility antigen, B alpha chain	cell-free assay	–	–	IC50	55.8 µM
CCn1cc(C2CC2)c2c(Cc3cnc(C(F)(F)F)c(OC)c3)n(C)nc2c1=O	PFF0160c	enzyme activity, inhibitor	–	–	IC50	0.0631 µM
O=C(CN1CCN(C(=O)c2ccco2)CC1)Nc1ccccc1Br	PFF0160c E182D	enzyme activity, inhibitor, absorbance	–	–	IC50	1.59 µM
O=C(O[C@@H]1Cc2c(O)cc(O)cc2O[C@@H]1c1cc(=O)c(O)c2c(O)c(O)cc([C@H]3Oc4cc(O)cc(O)c4C[C@H]3O)c2c1)c1cc(O)c(O)c(O)c1	Protein disulfide-isomerase (P4HB, Homo sapiens, UniProt P07237)	enzyme activity, inhibitor, fluorescence	–	–	IC50	3.4 µM
CCn1cc(C)c2c(C(O)c3ccc(Cl)c(F)c3)n(C)nc2c1=O (stereo not shown)	PFF0160c	enzyme activity, inhibitor	–	–	IC50	0.023 µM
CCCCCc1cn([C@H]2[C@H]([C@H](O)[C@H](O)CO)OC(C(=O)O)=C[C@@H]2O)nn1	Sialidase-4	enzyme activity, inhibitor	–	–	IC50	> 500 µM
CC[C@](N)(c1cnc(C(F)(F)F)c(Cl)c1)c1c2ncn(C3CC3)c(=O)c2nn1C	PFF0160c	enzyme activity, inhibitor	–	–	IC50	3.98 µM
CCCCNC(=O)N[C@H]1[C@H]([C@H](O)[C@H](O)CO)OC(C(=O)O)=C[C@@H]1O	Sialidase-4	enzyme activity, inhibitor	–	–	IC50	> 500 µM
COc1ccc(-n2ccnc2SCC(=O)Nc2cc(Cl)ccc2OC)c(OC)c1	PFF0160c E182D	enzyme activity, inhibitor, absorbance	–	–	IC50	> 10 µM
COC(=O)c1cc(-c2cccc(NC(=S)Nc3cc(C(F)(F)F)cc(C(F)(F)F)c3)c2)on1	Mycobacteroides chelonae	microbial growth, broth dilution	ATCC35752	48 h	MIC	> 64 µg/mL
CC(C)[C@H](NC(=O)[C@H](Cc1ccccc1)NC(=O)[C@H](CCCNC(=N)N)NC(=O)[C@H](CC(=O)O)NC(=O)[C@H](Cc1ccc(O)cc1)NC(=O)[C@@H](NC(=O)[C@@H](N)CCCCN)C(C)C)C(=O)N[C@@H](Cc1c[nH]cn1)C(=O)N[C@@H](Cc1ccccc1)C(=O)O	HLA class I histocompatibility antigen, B alpha chain	cell-free assay	–	–	IC50	14.5 µM
CC(C)C[C@H](NC(=O)[C@H](Cc1ccccc1)NC(=O)[C@H](Cc1ccc(O)cc1)NC(=O)CNC(=O)[C@H](CCCCN)NC(=O)[C@H](CO)NC(=O)[C@H](CCC(N)=O)NC(=O)CNC(=O)[C@@H](NC(=O)[C@H](CO)NC(=O)[C@@H]1CCCN1C(=O)[C@H](CO)NC(=O)[C@H](CCC(N)=O)NC(=O)[C@H](Cc1ccc(O)cc1)NC(=O)[C@H](CCC(=O)O)NC(=O)[C@H](C)NC(=O)[C@H](CCCCN)NC(=O)[C@@H](N)Cc1ccccc1)C(C)C)C(=O)N[C@@H](Cc1ccccc1)C(=O)N[C@@H](CCCNC(=N)N)C(=O)N1CCC[C@H]1C(=O)N[C@@H](CCCNC(=N)N)C(=O)N[C@@H](CC(N)=O)C(N)=O	Neuromedin-U receptor 1 (NMUR1, Homo sapiens, UniProt Q9HB89)	ligand displacement, radioligand	–	cell membranes	IC50	4e-05 µM
N[C@@H](Cc1ccc(O)cc1)C(=O)N[C@@H](CC(=O)O)C(=O)N[C@@H](Cc1ccccc1)C(=O)NCC(=O)NCC(=O)O	Angiotensin-converting enzyme (ACE, Homo sapiens, UniProt P12821)	enzyme activity, inhibitor	–	–	IC50	~16.3 µM and 16.3 µM
CC(C)CCN[C@H]1[C@H]([C@H](O)[C@H](O)CO)OC(C(=O)O)=C[C@@H]1O	Sialidase-4	enzyme activity, inhibitor	–	–	IC50	210 µM
CC[C@H](C)[C@H](NC(=O)[C@@H](N)CCCNC(=N)N)C(=O)N[C@@H](Cc1ccccc1)C(=O)NCC(=O)N[C@@H](Cc1c[nH]cn1)C(=O)N1CCC[C@H]1C(=O)N[C@@H](Cc1c[nH]cn1)C(=O)N[C@@H](CC(C)C)C(=O)N[C@@H](Cc1ccccc1)C(=O)O	HLA class I histocompatibility antigen, B alpha chain	cell-free assay	–	–	IC50	1.21 µM
Oc1c(C(Nc2ccccn2)c2ccco2)cc(Cl)c2cccnc12 (stereo not shown)	PFF0160c	enzyme activity, inhibitor, absorbance	–	–	IC50	8.7 µM
CC(C)CCC(=O)N[C@H]1[C@H]([C@H](O)[C@H](O)CO)OC(C(=O)O)=C[C@@H]1O	Sialidase-3	enzyme activity, inhibitor	–	–	IC50	> 500 µM
Nc1ncc(-c2nc(N3CCOCC3)nc(N3CCOCC3)n2)c(C(F)F)n1	Tyrosine-protein kinase ABL1, phosphorylated (ABL1, Homo sapiens, UniProt P00519)	binding, competition with immobilised ligand	–	10 µM	remaining binding	61%
COc1ccc(-n2ccnc2SCC(=O)Nc2cc(C(F)(F)F)ccc2Cl)c(OC)c1	PFF0160c	enzyme activity, inhibitor, absorbance	–	–	IC50	0.0554 µM
CCN(C)C(=O)Oc1ccc(CCC(=O)N2CCC(Cc3ccccc3)CC2)cc1	Cholinesterase (BCHE, Equus caballus, UniProt P81908)	enzyme activity, inhibitor, Ellman	–	–	IC50	12.5 µM
CSCC[C@H](NC(=O)[C@@H](N)CCCNC(=N)N)C(=O)N[C@@H](Cc1c[nH]c2ccccc12)C(=O)N[C@@H](CO)C(=O)N[C@@H](CCCCN)C(=O)N1CCC[C@H]1C(=O)N[C@@H](CC(C)C)C(=O)N[C@@H](CCC(N)=O)C(=O)N[C@@H](Cc1ccccc1)C(=O)O	HLA class I histocompatibility antigen, B alpha chain	cell-free assay	–	–	IC50	43.9 µM

For quick reference, copied from above:
Structure (SMILES)	target or system	test	test system	setting	quantity	result
CC[C@@](N)(c1cnc(C(F)(F)F)c(Cl)c1)c1c2ccn(C3CC3)c(=O)c2nn1C	PFF0160c	enzyme activity, inhibitor	–	–	IC50	0.0398 µM
CC[C@H](C)[C@H](NC(=O)[C@H](CO)NC(=O)[C@H](Cc1ccc(O)cc1)NC(=O)[C@@H](NC(=O)[C@@H](N)CCCCN)C(C)C)C(=O)N1CCC[C@H]1C(=O)N[C@@H](Cc1c[nH]cn1)C(=O)N[C@@H](CCC(N)=O)C(=O)N[C@@H](CCSC)C(=O)O	HLA class I histocompatibility antigen, B alpha chain	cell-free assay	–	–	IC50	55.8 µM
CCn1cc(C2CC2)c2c(Cc3cnc(C(F)(F)F)c(OC)c3)n(C)nc2c1=O	PFF0160c	enzyme activity, inhibitor	–	–	IC50	0.0631 µM
O=C(CN1CCN(C(=O)c2ccco2)CC1)Nc1ccccc1Br	PFF0160c E182D	enzyme activity, inhibitor, absorbance	–	–	IC50	1.59 µM
